Measurements gathered from unrelated publications.
A part holds a random share of what one study measured. Several values in a cell are separate wells, animals, samples, runs or records.

Series 1 — species: mouse; medium: microsomes or S9; tested at: 2 µM; time: 0.5 h
| SMILES | remaining compound [%] |
| --- | --- |
| Oc1ccc(C2c3c(-c4ccc(F)cc4)nnc(O)c3Nc3nnnn32)cc1 (stereo not drawn) | 65.3 |
| CCOC1CC(Nc2cncc(-c3nncn3C)c2)C12CCCC2 (stereo not drawn) | 49.1 |
| COC(=O)c1c(SC)nn2c(=S)[nH]cnc12 | 86.8 |
| Cc1nc2c(c(C)c(C)n2CCN2CCCC2)c(-c2ccc(Cl)cc2)c1[C@H](OC(C)(C)C)C(=O)O | 83.8 |
| Cc1ccc(C(=O)N2CCN(C(=O)c3ccc(C)cc3)C2)cc1 | 30.7 |
| Cc1ccccc1/N=C1\Nc2cccc3cccc1c23 | 4.56 |
| CCCn1c(N)c(N(CCOC)C(C)=O)c(=O)n(CC(=O)Nc2cc(Cl)cc(Cl)c2)c1=O | 48.8 |
| C=CCO/N=C/c1cn(CC=C)c2ccc(OC)cc12 | 0.466 |

Series 2 — cell line: mouse MPNST tumor cells; method: high-content immunofluorescence imaging; refers to: nuclear SOX9; tested at: 10 µM; time: 12 h; notes: mean of 2 replicates; reference: DMSO control; reading: higher = more nuclear SOX9
| Compound | nuclear SOX9 intensity |
| --- | --- |
| CCOC(=O)[C@H](CCc1ccccc1)N[C@H]1CCc2ccccc2N(CC(=O)O)C1=O | 94.9 % of DMSO and 93.6 % of DMSO |
| CCOC(=O)c1ccc(NC2CCCCC2)c(N)c1 | 89.6 % of DMSO |
| COc1ccc(-c2ccc3cc(C(=O)O)ccc3c2)cc1C12CC3CC(CC(C3)C1)C2 | 110 % of DMSO and 142 % of DMSO |
| CCN(Cc1ccccc1)C(=O)Cn1c(=O)n(C)c2cnc(-c3ccccc3)nc21 | 92.3 % of DMSO |
| C[C@]12CC[C@@H]3c4ccc(O)cc4CC[C@H]3[C@@H]1CC[C@@H]2O | 99.9 % of DMSO |
| C=C1C(=O)O[C@H]2[C@H]1CC/C(C)=C/CC[C@@]1(C)O[C@@H]21 | 148 % of DMSO |
| Cc1ccc(C(=O)c2cc(O)c(O)c([N+](=O)[O-])c2)cc1 | 99 % of DMSO |
| CCCC[P+](CCCC)(CCCC)Cc1ccc(NC(=O)C(Cc2ccc3ccccc3c2)NC(=NC2CCCCC2)NC2CCCCC2)cc1 (stereo not drawn) | 140 % of DMSO |

Further values, each from its own experiment
| SMILES | tested on | assay | conditions | how to read | measurement | result |
| --- | --- | --- | --- | --- | --- | --- |
| Cn1cncc1[C@@](O)(COc1ccc(C#N)cc1-c1ccc(OC(F)(F)F)cc1)c1ccc(C#N)cc1 | DYRK1A (Homo sapiens, UniProt Q13627) | cell-free assay, competition with immobilised ligand | 1 µM | – | remaining binding | 99% |
| CC(C)(C)c1cnc(CSc2cnc(NC(=O)C3CCN(CCCCCSc4cccc5c4CN(C4CCC(=O)NC4=O)C5=O)CC3)s2)o1 (stereo not drawn) | HuT78 | MS proteomics, refers to: P36578 (RPL4) | concentration not given, 6 h | reference: 0 h | log2 fold change | 0.788 |

Some of these lines once more (series 1):
| SMILES | remaining compound [%] |
| --- | --- |
| Oc1ccc(C2c3c(-c4ccc(F)cc4)nnc(O)c3Nc3nnnn32)cc1 (stereo not drawn) | 65.3 |
| CCOC1CC(Nc2cncc(-c3nncn3C)c2)C12CCCC2 (stereo not drawn) | 49.1 |
